Results pooled from the literature.
Every numbered part comes from another study and shows a few of its results, in no order.
Sequence of UniProt P29376 (whole entry, looked up): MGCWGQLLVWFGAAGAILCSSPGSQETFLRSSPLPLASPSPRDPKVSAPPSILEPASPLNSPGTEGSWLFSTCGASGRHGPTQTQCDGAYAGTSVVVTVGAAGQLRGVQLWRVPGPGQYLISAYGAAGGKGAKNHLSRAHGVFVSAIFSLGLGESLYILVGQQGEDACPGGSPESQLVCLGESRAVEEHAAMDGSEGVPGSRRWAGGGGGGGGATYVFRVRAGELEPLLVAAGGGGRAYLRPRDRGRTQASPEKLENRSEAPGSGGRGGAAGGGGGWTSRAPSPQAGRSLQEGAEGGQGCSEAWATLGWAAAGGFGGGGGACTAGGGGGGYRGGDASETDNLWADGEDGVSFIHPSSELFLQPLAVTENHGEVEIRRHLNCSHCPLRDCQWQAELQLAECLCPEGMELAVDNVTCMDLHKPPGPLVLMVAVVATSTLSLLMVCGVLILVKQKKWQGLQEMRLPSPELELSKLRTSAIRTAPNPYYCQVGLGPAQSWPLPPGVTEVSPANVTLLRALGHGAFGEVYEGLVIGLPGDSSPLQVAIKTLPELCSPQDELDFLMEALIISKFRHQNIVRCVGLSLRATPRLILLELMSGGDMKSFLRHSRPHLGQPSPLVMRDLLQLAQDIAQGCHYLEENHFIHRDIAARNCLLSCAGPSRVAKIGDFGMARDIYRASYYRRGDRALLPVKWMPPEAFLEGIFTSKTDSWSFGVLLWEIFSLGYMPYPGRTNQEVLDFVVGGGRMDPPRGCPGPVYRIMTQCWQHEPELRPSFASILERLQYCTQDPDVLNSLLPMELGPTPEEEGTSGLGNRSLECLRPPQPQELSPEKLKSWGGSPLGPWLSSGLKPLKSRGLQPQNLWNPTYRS
Sequence of UniProt Q9HBY8 (whole entry, looked up): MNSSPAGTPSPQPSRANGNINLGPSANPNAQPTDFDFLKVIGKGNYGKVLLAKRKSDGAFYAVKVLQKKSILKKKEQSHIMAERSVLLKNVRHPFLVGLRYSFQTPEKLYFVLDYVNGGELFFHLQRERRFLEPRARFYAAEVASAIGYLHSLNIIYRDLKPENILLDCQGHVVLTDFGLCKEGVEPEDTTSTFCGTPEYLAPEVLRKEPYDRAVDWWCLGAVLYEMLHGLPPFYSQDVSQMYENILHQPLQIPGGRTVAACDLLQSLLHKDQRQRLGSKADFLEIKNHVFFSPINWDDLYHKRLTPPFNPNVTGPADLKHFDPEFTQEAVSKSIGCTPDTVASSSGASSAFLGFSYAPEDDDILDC
Sequence of UniProt P36897 (whole entry, looked up): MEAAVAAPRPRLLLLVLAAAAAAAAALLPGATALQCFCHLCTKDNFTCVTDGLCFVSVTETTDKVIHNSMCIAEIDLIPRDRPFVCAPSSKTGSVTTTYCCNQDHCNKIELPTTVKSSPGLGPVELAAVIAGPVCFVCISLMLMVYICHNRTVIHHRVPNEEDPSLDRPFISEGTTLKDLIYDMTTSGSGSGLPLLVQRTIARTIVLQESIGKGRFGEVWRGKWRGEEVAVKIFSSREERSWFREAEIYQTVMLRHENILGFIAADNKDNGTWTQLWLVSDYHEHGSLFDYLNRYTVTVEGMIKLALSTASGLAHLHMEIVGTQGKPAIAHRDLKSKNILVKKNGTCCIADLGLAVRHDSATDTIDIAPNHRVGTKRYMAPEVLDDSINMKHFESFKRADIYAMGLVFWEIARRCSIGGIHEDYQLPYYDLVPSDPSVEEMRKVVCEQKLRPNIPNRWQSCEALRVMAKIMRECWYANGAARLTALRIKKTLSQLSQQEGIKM
Sequence of UniProt O95782 (whole entry, looked up): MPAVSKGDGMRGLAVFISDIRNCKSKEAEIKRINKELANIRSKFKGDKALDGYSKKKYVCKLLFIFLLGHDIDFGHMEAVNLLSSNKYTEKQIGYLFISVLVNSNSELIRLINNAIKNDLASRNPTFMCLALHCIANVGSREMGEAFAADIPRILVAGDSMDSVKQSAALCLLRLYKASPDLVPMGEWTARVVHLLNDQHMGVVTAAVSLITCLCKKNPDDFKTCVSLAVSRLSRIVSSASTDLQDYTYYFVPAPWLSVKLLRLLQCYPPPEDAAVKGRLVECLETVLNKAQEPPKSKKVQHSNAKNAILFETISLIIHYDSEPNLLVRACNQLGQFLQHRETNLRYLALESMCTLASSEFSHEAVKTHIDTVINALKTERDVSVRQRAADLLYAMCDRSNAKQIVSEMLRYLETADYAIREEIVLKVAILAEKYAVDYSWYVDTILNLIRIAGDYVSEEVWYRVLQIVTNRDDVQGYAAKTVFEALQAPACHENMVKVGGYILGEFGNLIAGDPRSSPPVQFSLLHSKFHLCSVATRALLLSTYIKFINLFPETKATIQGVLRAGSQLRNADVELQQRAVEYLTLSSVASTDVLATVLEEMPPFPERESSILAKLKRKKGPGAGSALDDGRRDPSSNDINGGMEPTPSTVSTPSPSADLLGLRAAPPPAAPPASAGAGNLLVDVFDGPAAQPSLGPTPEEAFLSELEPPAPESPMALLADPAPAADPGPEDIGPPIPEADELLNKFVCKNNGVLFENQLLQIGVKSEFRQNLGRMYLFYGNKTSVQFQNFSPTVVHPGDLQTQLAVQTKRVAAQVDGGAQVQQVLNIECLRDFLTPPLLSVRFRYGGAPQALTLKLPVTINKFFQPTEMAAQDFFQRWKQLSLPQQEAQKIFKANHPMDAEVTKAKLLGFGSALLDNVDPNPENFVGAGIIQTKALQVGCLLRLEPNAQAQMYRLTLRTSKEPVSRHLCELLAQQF
Sequence of UniProt P52564 (whole entry, looked up): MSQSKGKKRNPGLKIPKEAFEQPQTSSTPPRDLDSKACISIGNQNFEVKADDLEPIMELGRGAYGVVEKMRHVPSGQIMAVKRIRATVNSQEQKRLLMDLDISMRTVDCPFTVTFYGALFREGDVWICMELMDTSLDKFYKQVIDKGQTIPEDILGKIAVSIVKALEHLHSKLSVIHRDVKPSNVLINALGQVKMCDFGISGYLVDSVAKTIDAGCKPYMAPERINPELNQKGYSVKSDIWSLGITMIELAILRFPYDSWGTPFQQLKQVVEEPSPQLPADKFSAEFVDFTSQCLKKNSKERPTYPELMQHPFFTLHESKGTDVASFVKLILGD
Sequence of UniProt O14976 (whole entry, looked up): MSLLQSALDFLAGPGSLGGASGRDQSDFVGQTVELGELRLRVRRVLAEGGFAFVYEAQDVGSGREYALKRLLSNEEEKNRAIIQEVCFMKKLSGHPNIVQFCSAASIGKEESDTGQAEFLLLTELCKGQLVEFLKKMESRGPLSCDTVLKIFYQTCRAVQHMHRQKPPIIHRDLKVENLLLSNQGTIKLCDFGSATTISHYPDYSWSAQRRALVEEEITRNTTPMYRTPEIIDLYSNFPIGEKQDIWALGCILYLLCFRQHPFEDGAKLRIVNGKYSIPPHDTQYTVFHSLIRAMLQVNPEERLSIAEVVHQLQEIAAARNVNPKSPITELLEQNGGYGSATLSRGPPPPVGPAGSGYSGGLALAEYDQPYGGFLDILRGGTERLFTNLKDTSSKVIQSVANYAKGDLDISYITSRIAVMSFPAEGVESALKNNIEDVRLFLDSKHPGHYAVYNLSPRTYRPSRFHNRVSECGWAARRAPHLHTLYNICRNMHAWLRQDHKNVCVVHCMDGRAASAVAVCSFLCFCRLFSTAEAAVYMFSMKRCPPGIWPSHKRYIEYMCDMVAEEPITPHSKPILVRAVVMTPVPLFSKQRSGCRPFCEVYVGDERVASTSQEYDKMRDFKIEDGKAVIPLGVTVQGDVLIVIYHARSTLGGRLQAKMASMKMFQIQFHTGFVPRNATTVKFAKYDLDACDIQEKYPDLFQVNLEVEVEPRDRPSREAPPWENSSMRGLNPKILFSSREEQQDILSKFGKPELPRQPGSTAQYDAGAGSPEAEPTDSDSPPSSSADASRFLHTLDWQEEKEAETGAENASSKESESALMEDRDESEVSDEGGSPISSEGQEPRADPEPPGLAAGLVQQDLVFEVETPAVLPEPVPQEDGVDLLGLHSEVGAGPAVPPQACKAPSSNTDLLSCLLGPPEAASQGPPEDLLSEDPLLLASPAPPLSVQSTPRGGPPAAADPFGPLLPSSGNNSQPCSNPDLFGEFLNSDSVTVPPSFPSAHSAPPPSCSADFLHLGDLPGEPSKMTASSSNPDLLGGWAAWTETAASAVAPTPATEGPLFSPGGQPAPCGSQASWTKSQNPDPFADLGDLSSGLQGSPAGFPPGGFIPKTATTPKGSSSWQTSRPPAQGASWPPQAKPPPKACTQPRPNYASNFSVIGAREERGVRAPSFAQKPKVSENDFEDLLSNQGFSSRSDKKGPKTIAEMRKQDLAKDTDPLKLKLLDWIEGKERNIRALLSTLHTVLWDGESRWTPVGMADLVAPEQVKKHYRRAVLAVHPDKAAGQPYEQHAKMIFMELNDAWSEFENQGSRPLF

Set 1
SMILES: NCc1ccc(Nc2ncc(F)c(Nc3ccccc3)n2)cc1
For Trypanosoma brucei protein Tb427tmp.01.1680; binding, kinobead competition; Trypanosoma brucei lysate: IC50 read over 10 µM.
For ULK3 (Homo sapiens, UniProt Q6PHR2): IC50 read over 10 µM.
The IC50 was over 10 µM (Trypanosoma brucei kinase Tb427tmp.02.5450; binding, kinobead competition; Trypanosoma brucei lysate).
The IC50 was over 10 µM (TGFBR1 (Homo sapiens, UniProt P36897)).
AP-2 complex subunit alpha-1 (Homo sapiens, UniProt O95782) — IC50: over 10 µM.
For MAP2K2 (Homo sapiens, UniProt P36507): IC50 read over 10 µM.
It gave over 10 µM for IC50 (HSPA5 (Homo sapiens, UniProt P11021)).
The IC50 was over 10 µM (Cyclin-T1 (CCNT1, Homo sapiens, UniProt O60563)).
It gave over 10 µM for IC50 (Trypanosoma brucei protein Tb427tmp.01.2460; binding, kinobead competition; Trypanosoma brucei lysate).
For protein Tb427tmp.03.0090; kinobead TMT proteomics; Trypanosoma brucei, cell lysate: IC50 read over 10 µM.

Set 2
Target: Megakaryocyte-associated tyrosine-protein kinase (MATK, Homo sapiens, UniProt P42679)
Effect on: enzyme activity
Mode: inhibitor
Concentration: 0.5 µM
Relative to: control
Target sequence (P42679 1-507): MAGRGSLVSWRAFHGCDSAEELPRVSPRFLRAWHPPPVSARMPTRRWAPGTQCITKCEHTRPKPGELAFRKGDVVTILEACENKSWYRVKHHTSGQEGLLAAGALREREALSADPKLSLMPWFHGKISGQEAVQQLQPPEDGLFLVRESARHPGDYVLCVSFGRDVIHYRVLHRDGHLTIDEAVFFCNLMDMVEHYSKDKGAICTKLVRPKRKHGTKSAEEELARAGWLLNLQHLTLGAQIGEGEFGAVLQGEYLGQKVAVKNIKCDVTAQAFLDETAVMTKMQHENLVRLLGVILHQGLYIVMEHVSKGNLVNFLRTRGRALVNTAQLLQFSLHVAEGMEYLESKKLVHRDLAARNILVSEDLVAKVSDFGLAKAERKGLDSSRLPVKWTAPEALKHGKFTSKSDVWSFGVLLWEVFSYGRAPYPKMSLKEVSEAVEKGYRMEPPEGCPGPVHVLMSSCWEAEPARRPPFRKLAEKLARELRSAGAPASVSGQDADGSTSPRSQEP
With `NC(=O)c1cccc(-c2cc(Nc3ccc(OC(F)(F)F)cc3)ncn2)c1` the remaining activity was 100%.
With `FC(F)(F)c1ccc(/C=C/c2nc(COc3ccc(CCCCn4ccnn4)cc3)co2)cc1` the remaining activity was 95%.
`COc1cc2c(Nc3ccc(Br)cc3F)ncnc2cc1OCC1CCN(C)CC1` gave a remaining activity of 101%.
`CC(C)n1cnc2c(Nc3cccc(Cl)c3)nc(NCCO)nc21` gave a remaining activity of 93.3%.
For `CC(C)N(CCC(=O)c1ccc2ccccc2c1)Cc1ccccc1`, the remaining activity was 80.7%.
The remaining activity of `O=c1c(-c2ccc(F)cc2)c(-c2ccncc2)[nH]n1-c1ccc(Cl)cc1` is reported as 86%.
`N#CC(c1ccnc(NCCc2cccnc2)n1)c1nc2ccccc2s1` (stereo not shown) gave a remaining activity of 89.8%.
`C[C@@H](N)[C@H]1CC[C@H](C(=O)Nc2ccncc2)CC1` has a remaining activity of 96%.
For `COc1cc2c(N3CCN(C(=O)Nc4ccc(OC(C)C)cc4)CC3)ncnc2cc1OCCCN1CCCCC1`, the remaining activity was 79.4%.
For `NC(=O)c1ccc(-c2nc(-c3ccc4c(c3)OCCO4)c(-c3ccccn3)[nH]2)cc1`, the remaining activity was 91.4%.
`CCN(CC)CCCCN1c2ccccc2Oc2ccc(Cl)cc21` gave a remaining activity of 99.9%.
For `CNc1cc2c(Nc3cccc(Br)c3)ncnc2cn1`, the remaining activity was 88%.
`O=C(c1ccccc1)c1ccc(N2CCOCC2)cc1O` gave a remaining activity of 92.5%.
`c1cc(-c2cnn3cc(-c4ccc(OCCN5CCCCC5)cc4)cnc23)ccn1` has a remaining activity of 104%.
`O=C1NC(=O)/C(=C/c2ccc3c(c2)OC(F)(F)O3)S1` gave a remaining activity of 93.2%.
For `Clc1ccc(Nc2nnc(Cc3ccncc3)c3ccccc23)cc1`, the remaining activity was 78.1%.
For `Nc1nc(Nc2ccc(S(N)(=O)=O)cc2)nn1C(=S)Nc1c(F)cccc1F`, the remaining activity was 133%.
The remaining activity of `O=Nc1c(-c2c(O)[nH]c3ccccc23)[nH]c2ccccc12` is reported as 98%.
`O=C1c2ccccc2-c2nc3nnnn3nc21` gave a remaining activity of 99.7%.
`CC(C)(C)c1nc2c3cc[nH]c(=O)c3c3cc(F)ccc3c2[nH]1` gave a remaining activity of 102%.
For `CCCCc1c(-c2ccc(O)cc2)[nH]c2nccnc12`, the remaining activity was 109%.
`N#C/C(=C(/N)SC1C=CC=CC1)c1cccc(C(O)c2ccncc2)c1` (stereo not shown) gave a remaining activity of 87.9%.
`O=C(O)/C=C/c1cc(Br)c(Br)c(Br)c1Br` has a remaining activity of 87.2%.

Set 3
Compound: C[C@@]1(Cc2ccc(C#N)cc2)C(=O)N(c2cc(Cl)cc(Cl)c2)c2ncc(C(=O)NC3(c4nc(C5CCC5)no4)CC3)n21
Concentration: 1 µM
For LYN (Homo sapiens, UniProt P07948); cell-free assay, competition with immobilised ligand: remaining binding read 95%.
It gave 100% for remaining binding (LTK (Homo sapiens, UniProt P29376); cell-free assay, competition with immobilised ligand).
It gave 92% for remaining binding (ACVR2A (Homo sapiens, UniProt P27037); cell-free assay, competition with immobilised ligand).
EGFR (Homo sapiens, UniProt P00533, L858R/T790M); cell-free assay, competition with immobilised ligand — remaining binding: 79%.
STK32A (Homo sapiens, UniProt Q8WU08); cell-free assay, competition with immobilised ligand — remaining binding: 100%.
It gave 100% for remaining binding (Macrophage colony-stimulating factor 1 receptor, autoinhibited (CSF1R, Homo sapiens, UniProt P07333); cell-free assay, competition with immobilised ligand).
For MAP2K6 (Homo sapiens, UniProt P52564); cell-free assay, competition with immobilised ligand: remaining binding read 80%.
SIK1 (Homo sapiens, UniProt P57059); competition binding — remaining binding: 100%.
SGK2 (Homo sapiens, UniProt Q9HBY8); cell-free assay, competition with immobilised ligand — remaining binding: 100%.
GAK (Homo sapiens, UniProt O14976); cell-free assay, competition with immobilised ligand — remaining binding: 100%.
For MAPKAPK2 (Homo sapiens, UniProt P49137); cell-free assay, competition with immobilised ligand: remaining binding read 100%.
The remaining binding was 56% (EIF2AK2 (Homo sapiens, UniProt P19525); cell-free assay, competition with immobilised ligand).
The remaining binding was 95% (DSTYK (Homo sapiens, UniProt Q6XUX3); cell-free assay, competition with immobilised ligand).
It gave 100% for remaining binding (EGFR (Homo sapiens, UniProt P00533, A750P/del747-749); cell-free assay, competition with immobilised ligand).

Set 4
Target: Calcium/calmodulin-dependent protein kinase type II subunit alpha (CAMK2A, Homo sapiens, UniProt Q9UQM7)
Sequence of UniProt Q9UQM7 (whole entry, looked up): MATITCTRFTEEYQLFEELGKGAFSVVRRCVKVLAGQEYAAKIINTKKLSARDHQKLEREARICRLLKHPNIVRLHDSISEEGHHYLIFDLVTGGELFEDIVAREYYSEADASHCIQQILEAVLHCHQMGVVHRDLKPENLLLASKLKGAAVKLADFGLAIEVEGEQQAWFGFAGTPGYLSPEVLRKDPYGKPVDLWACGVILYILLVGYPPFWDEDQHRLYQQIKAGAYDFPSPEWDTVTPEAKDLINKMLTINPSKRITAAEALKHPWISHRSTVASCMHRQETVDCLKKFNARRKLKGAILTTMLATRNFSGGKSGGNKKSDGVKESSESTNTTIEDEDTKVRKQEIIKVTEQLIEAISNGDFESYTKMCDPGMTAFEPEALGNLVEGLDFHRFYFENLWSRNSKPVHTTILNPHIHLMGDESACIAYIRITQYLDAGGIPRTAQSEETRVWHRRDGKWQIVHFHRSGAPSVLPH
Effect on: enzyme activity
Mode: inhibitor
Concentration: 10 µM
The inhibition of `N=C(N)NC(=O)Cc1c(Cl)cccc1Cl` is reported as -9%.
`CCN1CC(CCN2CCOCC2)C(c2ccccc2)(c2ccccc2)C1=O` (stereo not shown) gave an inhibition of -1%.
For `O=C(O)/C=C/CCCCCCCO`, the inhibition was 0%.
The inhibition of `O=C(OCc1ccccc1)c1ccccc1` is reported as -3%.
For `O=C(O)c1ccnc2ccccc12`, the inhibition was -28%.
With `NCCCC[C@H](NC(=O)[C@@H]1CCCN1C(=O)[C@@H]1CSSC[C@H](NC(=O)CNC(=O)CNC(=O)CN)C(=O)N[C@@H](Cc2ccc(O)cc2)C(=O)N[C@@H](Cc2ccccc2)C(=O)N[C@@H](CCC(N)=O)C(=O)N[C@@H](CC(N)=O)C(=O)N1)C(=O)NCC(N)=O` the inhibition was -11%.
The inhibition of `CC[C@H]1OC(=O)[C@H](C)[C@@H](O[C@H]2C[C@@](C)(OC)[C@@H](O)[C@H](C)O2)[C@H](C)[C@@H](O[C@@H]2O[C@H](C)C[C@H](N(C)C)[C@H]2O)[C@](C)(O)C[C@@H](C)C(=O)[C@H](C)[C@H]2OC(=O)O[C@@]21C` is reported as -4%.
`COc1cc2c(cc1OC)-c1cc3ccc(OC)c(OC)c3c[n+]1CC2` has an inhibition of -15%.

For quick reference, copied from above (set 1):
For ULK3 (Homo sapiens, UniProt Q6PHR2): IC50 read over 10 µM.
The IC50 was over 10 µM (Trypanosoma brucei kinase Tb427tmp.02.5450; binding, kinobead competition; Trypanosoma brucei lysate).
The IC50 was over 10 µM (TGFBR1 (Homo sapiens, UniProt P36897)).
AP-2 complex subunit alpha-1 (Homo sapiens, UniProt O95782) — IC50: over 10 µM.
For MAP2K2 (Homo sapiens, UniProt P36507): IC50 read over 10 µM.
It gave over 10 µM for IC50 (HSPA5 (Homo sapiens, UniProt P11021)).
The IC50 was over 10 µM (Cyclin-T1 (CCNT1, Homo sapiens, UniProt O60563)).
It gave over 10 µM for IC50 (Trypanosoma brucei protein Tb427tmp.01.2460; binding, kinobead competition; Trypanosoma brucei lysate).
